Assay results of several laboratories.
Protocols differ between the studies behind these lines. ± gives the spread as reported.
Sequence of UniProt P11229 (whole entry, looked up): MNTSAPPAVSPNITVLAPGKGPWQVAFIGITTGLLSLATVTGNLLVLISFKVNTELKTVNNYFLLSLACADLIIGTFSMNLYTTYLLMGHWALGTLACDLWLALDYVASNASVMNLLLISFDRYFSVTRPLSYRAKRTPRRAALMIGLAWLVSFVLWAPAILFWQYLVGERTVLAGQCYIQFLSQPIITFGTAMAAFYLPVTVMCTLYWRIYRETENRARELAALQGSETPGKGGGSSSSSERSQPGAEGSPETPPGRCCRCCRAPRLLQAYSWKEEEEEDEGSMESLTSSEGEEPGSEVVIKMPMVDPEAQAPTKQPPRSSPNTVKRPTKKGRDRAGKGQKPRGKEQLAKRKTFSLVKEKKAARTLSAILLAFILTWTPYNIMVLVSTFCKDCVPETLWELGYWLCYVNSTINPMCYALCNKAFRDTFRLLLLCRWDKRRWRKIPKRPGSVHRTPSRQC
Sequence of UniProt O43353 (whole entry, unmodified, looked up): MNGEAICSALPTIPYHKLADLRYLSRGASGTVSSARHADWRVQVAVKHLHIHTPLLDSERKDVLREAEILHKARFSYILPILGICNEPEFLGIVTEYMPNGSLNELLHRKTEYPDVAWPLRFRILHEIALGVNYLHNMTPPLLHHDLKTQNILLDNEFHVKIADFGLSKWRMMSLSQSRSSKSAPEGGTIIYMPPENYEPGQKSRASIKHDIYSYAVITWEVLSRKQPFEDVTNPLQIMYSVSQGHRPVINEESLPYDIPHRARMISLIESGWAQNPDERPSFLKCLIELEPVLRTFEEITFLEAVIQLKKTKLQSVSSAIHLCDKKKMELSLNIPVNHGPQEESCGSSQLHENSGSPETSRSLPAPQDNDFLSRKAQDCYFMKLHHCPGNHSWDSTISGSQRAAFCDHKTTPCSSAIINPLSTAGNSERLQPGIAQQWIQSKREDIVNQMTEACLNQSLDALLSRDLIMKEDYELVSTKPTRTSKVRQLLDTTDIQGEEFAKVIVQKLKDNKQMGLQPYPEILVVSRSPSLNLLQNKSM

For `COc1cc2c(Oc3ccc4[nH]c(C)cc4c3F)ccnc2cc1OCC1(N)CC1`, “incidence of adverse event” read 5.9% (item: grade 3 hand-foot syndrome; paediatric high-risk refractory sarcoma; whole group).
The tissue uptake of `Cc1ccccc1NC(=O)Nc1ccc(CC(=O)N[C@@H](CCCCNC(=O)/C=C/c2cccnc2)C(=O)N[C@@H](CCCC(=O)O)C(=O)NC2(C(=O)NCCOCCOCCOCCOCC(=O)N[C@@H](CCCCNC(=S)Nc3ccc(CCCN(CCN4CCN(CP(=O)(O)O)CCN(CP(=O)(O)O)CC4)CC(=O)O)cc3)C(N)=O)CCCCC2)cc1` [gallium-68 labelled] is reported as 10.1 ± 0.6 %ID/g (mouse, kidney; intravenous, 4 h post-injection).
`O=c1ccc2ccccc2o1` has a chance response of 0.01% (NHEK; cell count; concentration not given, 6 h, GSH, ROS, ATP, MMP panel).
`CN1CC[C@@H](c2c(O)cc(O)c3c(=O)cc(-c4ccc(C(F)(F)F)cc4Cl)oc23)[C@@H]1CO`: “patients with adverse event” 0% (item: Anorexia; B-cell malignancies; oral, 200 mg, intermittent dosing).
The plasma concentration of `O=C1c2c(O)c(=O)ccn2N([C@@H]2c3ccccc3SCc3c2ccc(F)c3F)[C@@H]2COCCN12` is reported as 11.9 ng/mL (BALB/c mice, plasma; oral, 5 mg/kg baloxavir marboxil, 8 h).
For `Cc1cc(C(=O)NC(C)(C)COc2cccc3c2C(N)=NS(=O)(=O)N3)cc(C)n1`, the revertant ratio was 1 (Salmonella typhimurium; Ames test, confirmatory; TA1535; 5000 µg/plate; baseline: solvent control).
For `C[C@]1(CO)Cc2ncn(-c3ccc(C#N)c(Cl)c3)c2C(=O)O1`, “apparent terminal t1/2” read 4.43 to 6.13 h (human, Chinese or Japanese, plasma; single rising dose, range of means).
For `CC[C@H](C)[C@H](NC(=O)[C@H](Cc1ccccc1)NC(=O)[C@H](CCC(=O)O)NC(=O)[C@H](CCCNC(=N)N)NC(=O)[C@H](C)NC(=O)[C@H](C)NC(=O)[C@H](CCC(N)=O)NC(=O)[C@H](CCC(=O)O)NC(=O)[C@H](CCC(=O)O)NC(=O)[C@H](CC(C)C)NC(=O)[C@H](Cc1ccc(O)cc1)NC(=O)[C@H](CO)NC(=O)[C@H](CO)NC(=O)[C@@H](NC(=O)[C@H](CC(=O)O)NC(=O)[C@H](CO)NC(=O)[C@@H](NC(=O)[C@H](Cc1ccccc1)NC(=O)[C@@H](NC(=O)CNC(=O)[C@H](CCC(=O)O)NC(=O)[C@H](C)NC(=O)CCc1c[nH]cn1)[C@@H](C)O)[C@@H](C)O)C(C)C)C(=O)N[C@@H](C)C(=O)N[C@@H](Cc1c[nH]c2ccccc12)C(=O)N[C@@H](CC(C)C)C(=O)N[C@H](C(=O)N[C@@H](CCCNC(=N)N)C(=O)NCC(=O)N[C@@H](CCCNC(=N)N)C(=O)N[C@@H](CCCCNC(=O)COCCOCCNC(=O)COCCOCCNC(=O)CC[C@H](NC(=O)CCCCCCCCCCCCCCCCC(=O)O)C(=O)O)C(=O)NCC(=O)NCC(=O)N[C@@H](CO)C(=O)N[C@@H](CCCCNc1c(NCCCCCN(O)C(=O)CCC(=O)NCCCCCN(O)C(=O)CCC(=O)NCCCCCN(O)C(C)=O)c(=O)c1=O)C(=O)O)C(C)C`, the dose-normalised AUC was 72.9 kg·h/L (UPLC-MS; rat, plasma; subcutaneous, 20 nmol/kg).
`CO[C@H]1C[C@@H]2CC[C@@H](C)[C@@](O)(O2)C(=O)C(=O)N2CCCC[C@H]2C(=O)O[C@H]([C@H](C)C[C@@H]2CC[C@@H](OC(=O)NCCOCCOCCOCCOCCOCCOCCOCCOCCC(=O)N3CCc4cc(Cn5nc(-c6ccc7oc(N)nc7c6)c6c(N)ncnc65)ccc4C3)[C@H](OC)C2)C[C@@H](O)[C@H](C)/C=C(\C)[C@@H](O)[C@@H](OC)C(=O)[C@H](C)C[C@H](C)/C=C/C=C/C=C/1C`: “decreased appetite leading to dose reduction” 25% (patients with advanced solid tumours; intravenous, 16 mg weekly, any grade).
`CC(C)CC(=O)OC[C@H]1O[C@@](C#N)(c2ccc3c(N)ncnn23)[C@H](O)[C@@H]1O` — result for “Papp B to A”: 3.45 ×10⁻⁶ cm/s (ABCB1 (Homo sapiens, UniProt P08183); Caco-2; 0.9 µM, added: verapamil 100 µM).
With `COc1ccc(N2C(=O)N(c3c(C)cccc3Cl)Cc3cnc(Nc4ccc(C5CCN(C)CC5)cc4OC)nc32)nc1` the inhibition was 77% (RIPK2 (Homo sapiens, UniProt O43353); kinase activity; 0.5 µM).
With `CN1CCN(c2cc(-c3ccncc3)c(-c3ccc4ccccc4c3)nn2)CC1` the inhibition was 0.7% (CHRM1 (Homo sapiens, UniProt P11229); antagonist, FLIPR; 10 µM).
The CC50 of `NC(CO)(CO)CCc1ccc(Sc2cccc(OCc3ccccc3)c2)cc1Cl` is reported as 3.06 µM (African green monkey cells; 5 days).
